Assay results from different studies.
Parts stem from different laboratories: compare values within a part only.

Block 1 — method: RNA Bind-n-Seq; molecule type: RNA; sample: in vitro; tested at: not given; setting: RNA with constant flanks, ends assumed; reference: input RNA pool; direction: higher = stronger binding
Target: RING finger protein unkempt homolog, zinc fingers 1-6, GST-SBP tag (UNK, Homo sapiens, UniProt Q9C0B0, residues 30-357)
Sequence of UniProt Q9C0B0 (30-357, looked up): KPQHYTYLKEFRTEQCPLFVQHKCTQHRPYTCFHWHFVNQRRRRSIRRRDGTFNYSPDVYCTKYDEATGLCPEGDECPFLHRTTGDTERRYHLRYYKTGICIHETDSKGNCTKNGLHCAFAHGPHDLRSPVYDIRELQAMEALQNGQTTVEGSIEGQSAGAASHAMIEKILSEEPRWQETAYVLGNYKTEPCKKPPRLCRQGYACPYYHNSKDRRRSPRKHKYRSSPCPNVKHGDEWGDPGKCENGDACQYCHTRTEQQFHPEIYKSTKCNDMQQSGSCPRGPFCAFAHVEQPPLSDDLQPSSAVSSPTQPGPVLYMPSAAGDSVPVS
The bound/input enrichment of `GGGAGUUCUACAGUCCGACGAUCUUCUUGAAGGCUAUUGGGUAUCUUAUUCCUCUUAUGGAUGCAGAAUAUGCCAACUACUAUACCCGAGAAGUGAUGUUAAUCCUCAUUCGAGAAUUUCAGUCUCCUGAUGAAGAAAUGAAGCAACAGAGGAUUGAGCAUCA` is reported as 1.12 ratio.
The bound/input enrichment of `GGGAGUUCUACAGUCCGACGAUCUAUAAGAACUCUUGCAGUCUUAGAUGUUAUAAAAAUAUAUAUCUGAAUUGUAAGAGUUGUCCGCACAAGUUUUUUUUUUUUUUUUUUUUAAGCACUUGUUUUGGGUACAAGGCAUUUCUGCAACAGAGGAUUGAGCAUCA` is reported as 1.44 ratio.
With `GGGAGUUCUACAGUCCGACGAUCGUCAGAUUUGAGAAUGCAGAUCUGAACGACACAUCACGGAAUCUAGAAUUUCAUGAACUGCACCGCACUGGAAAUGAGCCUCCUCUGCUGGUUAUGAUCGGCUACAGUGACGGAAUGCAGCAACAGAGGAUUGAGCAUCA` the bound/input enrichment was 0.179 ratio.
With `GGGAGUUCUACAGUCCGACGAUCGAAUUGUCCCAUUUGCUGUCUUUAGAGGCCACGGCUUCAUUUCUAUGCGUAAAAAGCUCAUUCCGCAAUGUAGUUAUUUCAGUAUUUAUUUCUAUUAUGGAAUCCCUGGGGUUCGGAAUGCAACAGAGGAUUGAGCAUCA` the bound/input enrichment was 0.856 ratio.
With `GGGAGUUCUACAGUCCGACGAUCUGUCUGCCUCAUUCUAAAAUUUACACAGUAGACCAUUUGUCAUCCAUGCUGUCCCACAAACCGUUUUUUGUUUACGAUUUAUGACAGGUUUAUGUUACUUCUAUUUGAAUUUCUAUAUUUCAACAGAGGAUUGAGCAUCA` the bound/input enrichment was 0.292 ratio.
`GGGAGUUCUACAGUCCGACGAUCACAGACUUACUAAGAUUAUUUGAAUAUGGAGGUUUUCCACCAGAAGCCAACUAUCUUUUCUCCGGAGAUUAUGUGGACAGAGGAAAGCAGUCUUUGGAAACCAUCUGUUUGCUAUUGGCUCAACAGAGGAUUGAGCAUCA` has a bound/input enrichment of 0.816 ratio.
With `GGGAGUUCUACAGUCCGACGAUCCUUCUCAUGACCAACUGUAUCAAGAAUGAUCUUAAUCAUAGCACGCAGUUUGUGCAGGGGCCCGCACUUUGUACCCUCGGCUGCAUGGGCUCCUCGGAGAUGUGCAGAGAUCUUGCGGGACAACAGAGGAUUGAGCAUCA` the bound/input enrichment was 0.189 ratio.

Block 2 — method: protein binding microarray; molecule type: double-stranded DNA, one strand shown; sample: in vitro; tested at: not given; reference: not given; direction: higher = stronger binding
Target: Histone acetyltransferase KAT6A, both winged helices, GST fusion (KAT6A, Homo sapiens, UniProt Q92794, residues 1-181)
Setting: 8-mer, flanks averaged, mean of 2 arrays, mostly near background
Residues (chain): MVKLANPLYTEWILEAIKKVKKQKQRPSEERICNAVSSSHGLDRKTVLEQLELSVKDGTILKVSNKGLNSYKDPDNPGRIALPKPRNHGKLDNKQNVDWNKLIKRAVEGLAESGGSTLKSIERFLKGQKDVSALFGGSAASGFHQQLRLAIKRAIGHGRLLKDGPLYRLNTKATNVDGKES
`CTACTTTA` has an E-score of -0.0878.
The E-score of `AGCGGGAA` is reported as 0.257.
With `ACGCCAGT` the E-score was 0.0255.
With `ACCTTCGC` the E-score was 0.0512.
`CAATAGGG` has an E-score of -0.236.

Block 3 — method: protein-binding microarray; molecule type: double-stranded DNA, one strand shown; sample: in vitro; tested at: 250 nM; setting: 60-bp whole probe; with: salmon DNA 0.4 mg/ml; reference: random background probes; direction: higher = stronger binding; shared flanks, not repeated: GCCTAGCAC … GTCTTGATTCGCTTGACGCTGCTG
Target: Interferon regulatory factor 5, full length, phosphomimetic (IRF5, Homo sapiens, UniProt Q13568-2, residues 1-514, K96S/S451D/S453D/S456D/S462D)
`GACTAACTGGGGTATCGAGACGTGCTA` gave a log fluorescence of 0.425 z-score.
`CACGGACTGCTTCTCCTGACGTGCTAG` has a log fluorescence of -0.543 z-score.
The log fluorescence of `TTAGTTATCCTACTGCTTTAGTGCTAG` is reported as 0.273 z-score.
`TTAGGTATCCTTTTCCTTGAGTGCTAG` has a log fluorescence of 0.702 z-score.
For `GACGGTTTAGACACTGGGGACGTGCTA`, the log fluorescence was -0.0412 z-score.

Further values, each from its own experiment
`PhoQ, residues 284 288 289 292 302 303 SQSLSM` gave a fold induction of 5.51 (PhoP, residues 12 14 15 18 19 LHSVQ (Escherichia coli, UniProt P23836); Sort-seq, item: YFP reporter; E. coli; PhoQ-PhoP variant library, with: 10 µM Mg2+; reference: high Mg2+ state, higher = stronger signaling).

Excerpt of the above (block 1):
The bound/input enrichment of `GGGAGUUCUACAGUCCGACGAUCUUCUUGAAGGCUAUUGGGUAUCUUAUUCCUCUUAUGGAUGCAGAAUAUGCCAACUACUAUACCCGAGAAGUGAUGUUAAUCCUCAUUCGAGAAUUUCAGUCUCCUGAUGAAGAAAUGAAGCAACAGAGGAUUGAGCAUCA` is reported as 1.12 ratio.
The bound/input enrichment of `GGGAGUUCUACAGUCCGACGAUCUAUAAGAACUCUUGCAGUCUUAGAUGUUAUAAAAAUAUAUAUCUGAAUUGUAAGAGUUGUCCGCACAAGUUUUUUUUUUUUUUUUUUUUAAGCACUUGUUUUGGGUACAAGGCAUUUCUGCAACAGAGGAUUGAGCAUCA` is reported as 1.44 ratio.
